{"data": "Published values collected from several papers", "note": "Every numbered part comes from another study and shows a few of its results, in no order.", "chain of UniProt P07949 (whole entry, unmodified, looked up)": "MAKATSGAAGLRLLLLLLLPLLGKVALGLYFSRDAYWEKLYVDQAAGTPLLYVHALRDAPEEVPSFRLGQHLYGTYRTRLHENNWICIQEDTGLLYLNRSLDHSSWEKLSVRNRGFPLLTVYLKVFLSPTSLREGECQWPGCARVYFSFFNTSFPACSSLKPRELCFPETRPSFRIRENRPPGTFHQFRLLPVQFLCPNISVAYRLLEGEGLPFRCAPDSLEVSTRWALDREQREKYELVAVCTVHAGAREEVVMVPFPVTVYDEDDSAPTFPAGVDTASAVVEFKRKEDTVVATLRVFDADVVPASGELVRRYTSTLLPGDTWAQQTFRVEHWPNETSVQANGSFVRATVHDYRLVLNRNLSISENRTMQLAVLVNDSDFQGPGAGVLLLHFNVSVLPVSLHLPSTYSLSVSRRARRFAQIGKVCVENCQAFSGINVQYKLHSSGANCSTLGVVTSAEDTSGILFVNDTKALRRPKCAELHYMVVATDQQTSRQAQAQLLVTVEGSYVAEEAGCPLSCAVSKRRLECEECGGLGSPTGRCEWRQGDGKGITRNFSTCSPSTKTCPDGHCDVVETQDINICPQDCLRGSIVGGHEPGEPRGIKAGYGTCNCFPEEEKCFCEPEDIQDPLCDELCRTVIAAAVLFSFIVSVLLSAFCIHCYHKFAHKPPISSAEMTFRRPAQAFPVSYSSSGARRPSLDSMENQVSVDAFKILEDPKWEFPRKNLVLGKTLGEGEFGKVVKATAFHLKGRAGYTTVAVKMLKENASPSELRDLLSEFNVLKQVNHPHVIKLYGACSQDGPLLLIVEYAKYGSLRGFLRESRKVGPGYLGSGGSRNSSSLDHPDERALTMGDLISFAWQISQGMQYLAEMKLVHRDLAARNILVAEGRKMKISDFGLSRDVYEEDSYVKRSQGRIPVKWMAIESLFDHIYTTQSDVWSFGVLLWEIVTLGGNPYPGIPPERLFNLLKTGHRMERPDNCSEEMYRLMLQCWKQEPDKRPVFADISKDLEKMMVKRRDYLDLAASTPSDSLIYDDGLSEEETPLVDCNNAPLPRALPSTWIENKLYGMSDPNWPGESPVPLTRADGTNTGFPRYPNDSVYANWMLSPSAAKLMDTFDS"}
{"data": "Block 1", "target": "TAR DNA-binding protein 43, full length, His tag (TARDBP, Homo sapiens, UniProt Q13148, residues 1-414)", "method": "RNA Bind-n-Seq", "molecule type": "RNA", "medium": "in vitro", "tested at": "20 nM", "setting": "6-mer, flanks averaged, single round", "added": "150 mM KCl", "relative to": "input library", "direction": "higher = stronger binding"}
{"Oligonucleotide": "ACGGUA", "6-mer enrichment (R)": 0.779}
{"Oligonucleotide": "GAGACG", "6-mer enrichment (R)": 1.65}
{"Oligonucleotide": "UCGAGU", "6-mer enrichment (R)": 0.78}
{"Oligonucleotide": "UCCUGA", "6-mer enrichment (R)": 0.606}
{"Oligonucleotide": "CAGGCG", "6-mer enrichment (R)": 1.69}
{"Oligonucleotide": "AUCCGA", "6-mer enrichment (R)": 0.606}
{"Oligonucleotide": "GCGAGC", "6-mer enrichment (R)": 1.42}
{"Oligonucleotide": "UCAAUA", "6-mer enrichment (R)": 0.605}
{"data": "Block 2", "target": "RNA binding protein fox-1 homolog 2, RRM domain, GST-SBP tag (RBFOX2, Homo sapiens, UniProt O43251-10, residues 100-194)", "method": "RNA Bind-n-Seq", "molecule type": "RNA", "medium": "in vitro", "tested at": "365 nM", "setting": "natural RNA segment, single round, ends assumed", "relative to": "no-protein control", "direction": "higher = stronger binding"}
{"Oligonucleotide": "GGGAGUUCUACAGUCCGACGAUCCCACAGCCCACCUUGCAUGCAUGGCCAGCCCCUCCACUCCAGCCUGAGCCAUGUGUGCCCCUGCGGGAGGACCCAUUCAUGCCAGAAAGCUGGUAACUCCCUCCCAGCAUUGGAAUUCUCGGGUGCCAA", "RBNS enrichment (R)": 1.58}
{"Oligonucleotide": "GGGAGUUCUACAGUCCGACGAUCGUUUCUGGUAGCAGGCCUCCAUUGAACUGUUGUAAAAUACAAGAAGUGUGGUCAGUAAGGAGAGUUGGGGUGGUGCCUUCCAGCCUGCCCGCCAGUCCAUCCUAGACACUUGGAAUUCUCGGGUGCCAA", "RBNS enrichment (R)": 0.394}
{"Oligonucleotide": "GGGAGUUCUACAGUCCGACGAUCUCAUUGUCUGAUUAAAACAGUUUAUAUGUUGUUGUUAGCUCAUUUAAAGCUACAUCAUGCUGUAGUGUUGGCAUUUUUAGUUAAUAGGGCAUUGUCUUCCUUGUAUAUGUUGGAAUUCUCGGGUGCCAA", "RBNS enrichment (R)": 0.46}
{"Oligonucleotide": "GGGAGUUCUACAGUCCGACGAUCGGUAAAUUAUAAGAUCCAGAUGUUAGUGUCUAGAAUUAGCUGUUUAGAAUUCAGAGGGGACAUAUGUUUUAACUUUGUCAUAUAUUAGCAAGAAUUGGUCUACUGUGAUGUGGAAUUCUCGGGUGCCAA", "RBNS enrichment (R)": 3.19}
{"Oligonucleotide": "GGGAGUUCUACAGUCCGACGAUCUUAAUGAUUAGCUGUGGUUAUGAUCUUGAGCCCUAACAUGCCACAUUACUCAAGAUUUACACAGGCAAGUGACUUCAUUUGGCACUGCUAAUAAUGGCAGGUGAACAUUCUGGAAUUCUCGGGUGCCAA", "RBNS enrichment (R)": 0.401}
{"Oligonucleotide": "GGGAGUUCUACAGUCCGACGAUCGAACUGGAUGCACUGGCCAUAGCUAGCAUCAAUGUCCCCGUGUUUCCAGGAACCCCUGCCAUGAGGCCAUCAUAGAUCCAGACUCGGGAUGUGGGCUCCAAACCAGAAUAUGGAAUUCUCGGGUGCCAA", "RBNS enrichment (R)": 0.608}
{"Oligonucleotide": "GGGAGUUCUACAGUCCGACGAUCGACUAUUUGAAUUUCAAGAACUGUGCUGCGAAGACACUCUGAGAACAUUUGCAAGUCAGGGGCAUUUUCCUUGACCCUUGACUGAUGCUAUGCGGAGACUGAUACAUUUUUGGAAUUCUCGGGUGCCAA", "RBNS enrichment (R)": 0.62}
{"Oligonucleotide": "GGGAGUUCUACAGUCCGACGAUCGGACACACUAUCACCUAUUACAUUUUACUGAUUAACAAAUAAAUUGGAAUUUAAAAAUAUCGAUAUCACCAUGAUUUAAUCCAGAUCUGGGAUUAUGUAGCUAAACAUUGUGGAAUUCUCGGGUGCCAA", "RBNS enrichment (R)": 0.439}
{"data": "Single results of other studies"}
{"Molecule": "PhoQ, residues 284 288 289 292 302 303 SLSVQF", "target": "PhoP, residues 12 14 15 18 19 SYFRT (Escherichia coli, UniProt P23836)", "assay": "Sort-seq, measured: YFP reporter", "system": "E. coli", "conditions": "PhoQ-PhoP variant library, added: 10 µM Mg2+", "how to read": "relative to: high Mg2+ state, higher = stronger signaling", "quantity": "fold induction", "value": 15}
{"Molecule": "CCOCCn1cc(C(=O)Nc2ccc(-n3nc(-c4cccnc4)cc3C(F)(F)F)cn2)ccc1=O", "target": "Proto-oncogene tyrosine-protein kinase receptor Ret (RET, Homo sapiens, UniProt P07949, M918T)", "assay": "cell-free assay, competition with immobilised ligand", "conditions": "1 µM", "quantity": "remaining binding", "value": "91%"}
{"note": "For quick reference, copied from above (block 1):"}
{"Oligonucleotide": "UCCUGA", "6-mer enrichment (R)": 0.606}
